# Results of several laboratories.
# Protocols differ between the studies behind these lines. “And” joins repeats or separate records; there may be more than shown. ± marks the error that the study gave.
SMILES,test,test system,conditions,scale,quantity,value
Cc1cc(C)c(CNC(=O)c2cc(Cl)c3c(c2C)O[C@@](C)([C@H]2CC[C@H](N(C)C)CC2)O3)c(=O)[nH]1,ultracentrifugation,"human, plasma","160 min, clinically relevant concentrations",,plasma protein binding,> 94%
Cn1cncc1[C@@](N)(c1ccc(Cl)cc1)c1ccc2c(c1)c(-c1cccc(Cl)c1)cc(=O)n2C,,human,"oral, tablets fed",relative to: fasted state,plasma exposure increase,~30%
Cn1cc(Nc2nccc(-c3ccc4c(c3)CN(C3COC3)CC[C@H]4NC(=O)c3cn(C(C)(C)C)nn3)n2)cn1,,"human, whole blood","300 mg twice daily, day 7",relative to: pre-dose baseline,plasma cell count change,280%
N#Cc1ccc(C(c2ccc(C#N)cc2)n2cncn2)cc1,,"human patients, plasma","oral, 5 mg daily, day of surgery",,plasma concentration,67.2 ± 10 ng/mL
C[C@H](CCC(=O)O[C@@H]1O[C@H](C(=O)O)[C@@H](O)[C@H](O)[C@H]1O)[C@H]1CC[C@H]2[C@@H]3[C@H](O)C[C@@H]4C[C@H](O)CC[C@]4(C)[C@H]3CC[C@]12C,,"healthy human volunteers, plasma","dose not given, 0 h, control phase, probe drugs alone",,plasma concentration,19.3 ± 1.6 nM
CN1CCN(c2ccc(OC(F)(F)F)c(Nc3ncc4c(n3)-c3c(c(C(N)=O)nn3CCO)CC4)c2)CC1,LC-MS/MS,"human, plasma","oral, 12 mg/m2, 1 h post-dose",,plasma concentration,33.1 ng/mL and 99.9 ng/mL and 86.6 ng/mL
C[C@H](CCC(=O)NCCS(=O)(=O)O)[C@H]1CC[C@H]2[C@@H]3[C@H](O)C[C@@H]4C[C@H](O)CC[C@]4(C)[C@H]3C[C@H](O)[C@]12C,,"healthy human volunteers, plasma","dose not given, 0 h, baseline phase, no drug",,plasma concentration,14.5 ± 3.8 nM
COc1cc2c(cc1OC)CN(CCc1ccc(NC(=O)c3cc(OC)c(OC)cc3NC(=O)c3cnc4ccccc4c3)cc1)CC2,,"human, plasma","intravenous infusion, 5.9 mg/kg, 90 min",,plasma concentration,3610 nM
C[C@H](CCC(=O)NCCS(=O)(=O)O)[C@H]1CC[C@H]2[C@@H]3CC[C@@H]4C[C@H](O)CC[C@]4(C)[C@H]3C[C@H](O)[C@]12C,,"healthy human volunteers, plasma","dose not given, 0 h, control phase, probe drugs alone",,plasma concentration,42.8 ± 19.7 nM
Cc1ccc(C(=O)N(CCCN)C(c2nc3snc(C)c3c(=O)n2Cc2ccccc2)C(C)C)cc1 (stereo not shown),,"human patients, plasma","intravenous, 18 mg/day, day 3 of induction course, geometric mean",,plasma concentration at 24 h,48 ng/mL

# Some of these lines once more:
SMILES,test,test system,conditions,scale,quantity,value
Cn1cncc1[C@@](N)(c1ccc(Cl)cc1)c1ccc2c(c1)c(-c1cccc(Cl)c1)cc(=O)n2C,,human,"oral, tablets fed",relative to: fasted state,plasma exposure increase,~30%
